Measured values from different studies.
Parts stem from different laboratories: compare values within a part only.

Set 1 — technique: protein binding microarray; form: double-stranded DNA, one strand shown; matrix: in vitro; concentration: not given; reference: not given; direction: higher = stronger binding; measurement: E-score
Target: Histone acetyltransferase KAT6A, winged helix 1, GST fusion (KAT6A, Homo sapiens, UniProt Q92794, residues 1-85)
Setting: 8-mer, flanks averaged, mean of 2 arrays, mostly near background
Target sequence (chain): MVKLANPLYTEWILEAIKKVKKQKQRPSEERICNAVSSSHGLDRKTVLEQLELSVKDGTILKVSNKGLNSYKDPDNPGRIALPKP
TAGTTCGA: -0.116
ATAGACAA: -0.147
AGCAATAA: -0.283
GGCCTGAC: -0.0107
AAGTTTCT: -0.221
CTATCGAA: 0.0206
AGGGCAGA: -0.176
ATGAGTTA: -0.0799
CCCCGGGC: 0.264
AATAGTGA: -0.0843
CATTGCCC: -0.0774
CCTATGTA: -0.0698
CATCAGGG: -0.112
AAGAGGTA: -0.104
AGCGCAAT: 0.218
ATCCCACG: -0.0923
CGTGTGTC: 0.0417
GATTGATA: -0.236
GTTCACAA: -0.113
CTCTGGGC: -0.146
GAGATCTA: -0.114
CCCGCAGC: 0.21
AGTCATAT: -0.2
AAGATCCT: -0.15
CGACTCTA: -0.0464

Set 2 — technique: aptamer microarray, sandwich; form: DNA with 2'F-ANA; matrix: in vitro; concentration: 200 nM; with: Cy3 exosite-II aptamer, 400 nM; direction: higher = stronger binding; measurement: mean fluorescence intensity; sequence: GGTTGGTGTGGTTGG
Target: Prothrombin, mature alpha-thrombin (F2, Homo sapiens, UniProt P00734)
Setting: whole 15-mer aptamer, many near background
2'F-ANA at 2 4 7 11 14: 119 a.u.
2'F-ANA at 3 4 6 7 8 9 11 14: 240 a.u.
2'F-ANA at 6 7 9 12 14: 212 a.u.
2'F-ANA at 1 2 3 5 6 8 9 14 15: 47.7 a.u.
2'F-ANA at 2 3 6 7 8 11 15: 603 a.u.
2'F-ANA at 1 3 5 8 10 12 14 15: 50.4 a.u.
2'F-ANA at 1 3 5 7 8 9 11: 61.8 a.u.
2'F-ANA at 2 3 4 6 7 8 9 10 14: 158 a.u.
2'F-ANA at 1 2 4 5 7 10 11 14 15: 47.2 a.u.
2'F-ANA at 6 8 14 15: 189 a.u.
2'F-ANA at 2 3 4 5 6 7 8 10 13 14 15: 46.5 a.u.
2'F-ANA at 1 5 7 9 13: 48.4 a.u.
2'F-ANA at 3 8 10 11 12 14: 342 a.u.
2'F-ANA at 1 2 3 4 7 10 12 13: 63.1 a.u.
2'F-ANA at 1 2 4 5 6 7 14 15: 49.2 a.u.
2'F-ANA at 2 4 5 6 7 8: 78 a.u.
2'F-ANA at 1 3 4 5 6 7 13 15: 51.1 a.u.
2'F-ANA at 1 3 6 9 10 11 15: 66.3 a.u.
2'F-ANA at 1 2 3 5 8 15: 74.7 a.u.
2'F-ANA at 1 2 4 5 8 9 10 14 15: 46.9 a.u.
2'F-ANA at 1 2 3 7 8 10 12: 131 a.u.
2'F-ANA at 2 3 6 7 9 12 14: 368 a.u.
2'F-ANA at 1 2 3 5 6 10 11 12 13 14: 48.8 a.u.
2'F-ANA at 4 7 9 10: 87.2 a.u.

Set 3 — technique: RNA Bind-n-Seq; form: RNA; matrix: in vitro; concentration: 365 nM; reference: no-protein control; direction: higher = stronger binding; measurement: RBNS enrichment (R)
Target: RNA binding protein fox-1 homolog 2, RRM domain, GST-SBP tag (RBFOX2, Homo sapiens, UniProt O43251-10, residues 100-194)
Setting: natural RNA segment, single round, ends assumed
All sequences stand within: GGGAGUUCUACAGUCCGACGAUC … UGGAAUUCUCGGGUGCCAA
Construct (chain): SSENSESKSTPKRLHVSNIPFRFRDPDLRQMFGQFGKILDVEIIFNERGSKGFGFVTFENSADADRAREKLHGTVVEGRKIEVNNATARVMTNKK
UCUGUAAAAUUUGUUUAGAAGUACGUUUUUGCAUUAUUCAUAUGCUUCCCAGAGAAGCUCAUUUAGUUAGAAAAUAAGGCAAGUUUUGAAGCCUGCUAAAUGAAGAGACU: 1.78
ACUAAAGACAAUAUAAAGAAAAAUAAUCUAAGAAGAUAAAGGGGCUUUCUGCUUAAAGAUAUGUAGAUAAUAUUCCUAAGUAUGCUGAAAUAAAAUACUGUUUCAAACUG: 0.586
GACAUGGGGAGGACAAAGAGAGCUCAAGAGGAAUGCUUUGUGAGAAGUGGAUUCUCUCCGUGUCCCUGCCCCCCACCCAAACUUGAACUAUACCUAUUACAUUUCCAGGC: 0.851
CAUUGCCUCUCAGCAUUCCGGCCUAAGUUGCGCCCUCCCAGUAUCAGCUCUGAAAGUCUAGGAAUAGUCUUUGUAACAUCUUAGCAGAUGUGUCCUUGUAUGCUGGUGGA: 0.338
UUCUCCCUUUUUCUGACAGUGUGGUUCAGCUCCUGUUUCAGAUUCUGUGUCAUUUUUCAAUUUACAAGUCACUUAAGUUUCUACCUGGAAUGUCAGGUGGCAAUGACAUC: 0.507
UAUCUAGCUGCAAAGCCUGGCUUUGAUUUGAAAUUUUGUAAAAAUUUCAUGGCACCCAAGGUUUCUGAUUCUGACCCAGCAGUGGUCCUGAAGAGAGCUGAUGGCAAGUC: 0.413
GAUGAGAAAUAAUUCACUUAAUAUCAGAAAUAUUUUCCAAACACUUUCCUUUAUUUUUUCUUCUGAAUAAAUAGAAAACCAACAGUUUGAUUUCCUUUUCCCUUAAAGGA: 0.401
GUAUAUAAUAUUUAAGAUGCUGAGUAUUUCAUAGGAAAGCUGAAUGCUGCUGUAAAGUGCUCUUUAAGUCUUUUUUUUUUUUAAUCCCCUUCUAAUGAAUGAAACUAGGG: 1.38
GAGCAUGGCUCACAGGCCUUGUGUCUGGGUGAAGGGAACCCAGGGUCAGGCUGCACUUCUGUUUCUGUCUUUUGCUCAACAGCGGGGUGUGCACUCGUGGCUGCACAGAU: 2.36
CAGAAAAGGGACACCCUUUUAUGGUGUCAACUUUUGGAUCUGGGUUUCCCCCAGAUGUUGGGUUGCAUGCCAAUAAACAUGUGGCUUCUUCUCAAAGCCUGUCUUCAAAA: 0.639
CCCCAAGGUGAAGUGGAGGGUGCUGUGGUGAGCUGGCCACUCCAGAGCUGCAGUGCCACUGGAGGAGUCAGACUACCAUGACAUCGUAGGGAAGGAGGGGAGAUUUUUUU: 0.52
UUUGCAUUGUUUUUGAACUAUUGGGACUUAGUACUUACGACUUCAUUAAAGAAAAUGGUUUUCUACCAUUUCGACUGGAUCAUAUCAGAAAGAUGGCAUAUCAGAUAUGC: 0.588

Set 4 — technique: RNA Bind-n-Seq; form: RNA; matrix: in vitro; concentration: 20 nM; setting: 6-mer, flanks averaged, single round; with: 150 mM LiCl; reference: input library; direction: higher = stronger binding; measurement: 6-mer enrichment (R)
Target: TAR DNA-binding protein 43, full length, His tag (TARDBP, Homo sapiens, UniProt Q13148, residues 1-414)
AGUAAA: 0.846
CCGCGC: 0.966
GACCUC: 0.848
CGAUCA: 0.799
GCCCAG: 0.973
CGCUGC: 0.918
GGGCCU: 1.08
AAGAGG: 1.04
ACACAA: 0.871
GUACCC: 0.99
UCAAGC: 0.823
CGUGGU: 1.13
CAGCAU: 0.87
UAGGCC: 0.955
AGAGUC: 0.861
AAGUUG: 1.02
AUUUUA: 1.18
GGGGGA: 1.45
UAUUUG: 1.21
UAUCGG: 0.898

Set 5 — technique: RNAcompete; form: RNA; matrix: in vitro; concentration: 20 nM; setting: 7-mer, probes averaged, single round; reference: mean of 7-mers; direction: higher = stronger binding; measurement: 7-mer Z-score
Target: PABPC1L2, full length, GST fusion (mouse, UniProt A0ABA7IW68)
Residues (chain): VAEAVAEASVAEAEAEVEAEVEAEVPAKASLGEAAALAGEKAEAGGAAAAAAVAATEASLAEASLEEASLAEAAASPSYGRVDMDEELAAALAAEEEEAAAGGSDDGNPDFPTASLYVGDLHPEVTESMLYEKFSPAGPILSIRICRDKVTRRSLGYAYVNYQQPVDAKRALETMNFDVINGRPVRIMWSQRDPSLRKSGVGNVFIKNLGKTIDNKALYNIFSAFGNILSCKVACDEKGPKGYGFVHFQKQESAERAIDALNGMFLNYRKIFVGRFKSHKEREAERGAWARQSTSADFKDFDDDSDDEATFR
GAACGCA: 0.12
AAGAGGU: 0.579
UAUCUGU: -0.32
ACUCUGG: -0.0917
UGAUUUG: -0.24
GGAACAU: 0.177
GCCCAUA: -0.28
AAAAAGU: 17.8
UACGAUU: -0.242
UCGCGAG: -0.2
CGCUUGC: -0.438
CAAGUUG: -0.166
CACGGUG: -0.021
UGAGCAG: -0.18
CGUUAGA: -0.171
UGACCAG: -0.0337
GACAAGU: 0.0913
AAGGGUG: 0.419

Set 6 — technique: RNA Bind-n-Seq; form: RNA; matrix: in vitro; concentration: not given; reference: input RNA pool; direction: higher = stronger binding; measurement: bound/input enrichment
Target: RING finger protein unkempt homolog, zinc fingers 1-6, GST-SBP tag (UNK, Homo sapiens, UniProt Q9C0B0, residues 30-357)
UniProt Q9C0B0, sequence (30-357, looked up): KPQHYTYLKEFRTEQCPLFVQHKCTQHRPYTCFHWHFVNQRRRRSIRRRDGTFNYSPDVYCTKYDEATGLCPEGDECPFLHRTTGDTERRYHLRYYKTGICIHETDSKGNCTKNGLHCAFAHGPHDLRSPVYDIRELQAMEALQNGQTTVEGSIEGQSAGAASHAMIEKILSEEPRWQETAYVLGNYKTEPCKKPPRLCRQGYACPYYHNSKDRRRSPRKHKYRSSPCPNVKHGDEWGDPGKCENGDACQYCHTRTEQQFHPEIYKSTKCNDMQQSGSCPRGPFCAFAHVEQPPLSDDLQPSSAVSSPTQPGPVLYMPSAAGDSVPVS
Setting: RNA with constant flanks, human and mouse sites, ends assumed
All sequences stand within: GGGAGUUCUACAGUCCGACGAUC … CAACAGAGGAUUGAGCAUCA
GACCGGCCGGAGCGCCCUUGCAAGCCCCUCCUCACACUGGGCCUGGAUUAUACAGGCAUCUCGUGGAAGGAGAAGGUUGCAGACCUCCGGUUGAAAAUGGCAGAGAGGAGCAUCGCGUGG: 0.213 ratio
CCUGGGUGACAGAGUGAGACCCUGUCUCUAAAAAAAAAAAAAAGAAAAUAAAGAAAAAAGAAUGUCAGCAUGUCAGCGUUCCUCCAAGGAGUGGCUUUGGGUCAAGAAGACAGGCUGGCU: 0.497 ratio
AAGUCAGCCCUGACUGUACAGUUUGUUCAAGGAAUUUUUGUUGAAAAAUAUGAUCCUACGAUAGAAGAUUCUUAUAGAAAGCAAGUUGAAGUAGAUGCACAGCAGUGUAUGCUUGAAAUC: 1.98 ratio
CUUCAUUUUACACUAAAGCUUAAUGUCACUAAGUUUCAUGUCUGUACAGAUUAUUUAAAUCAUGGAAAUGAAAAAAAUGUUCUCUGCUUGCUACCAAAGGACAAACUCUUGGAAAUGAAC: 0.143 ratio
UUGUUUCUCCGUUUUCUUUGCCCAGCCAUUAUGUCUCCCAGUCUUUUCAACCUGAUGCAGGAAUAUCCUGAUGACCGCACAUCUCGGACACUAACUCUUAUUGCCAAGGUCAUUCAGAAC: 0.466 ratio
GAGGAGAGGAAGGCAUCUUGUACGUCGUUACAUUUAUCAUAUUGGAAGUCCCUUAAGCUCCUAGGAUUUUUAGAUGUUGAAAAUACUCCCUGCGCCCGGCAUUCAAUAUUGUAUGGUUCA: 1.43 ratio
GGUGGUGCUACACGAAUCCCUGCGGUAAAAGAGAAGAUCAGCAAAUUUUUCGGUAAAGAACUUAGUACAACAUUAAAUGCUGAUGAAGCUGUCACUCGAGGCUGUGCAUUGCAGUGUGCC: 1.12 ratio
CUUACGUGUUUCCCUUUCCUUCGUUUGGUUGGUUGGUGGGAAGGUGGGUGGGUUUGUGUUUCCGUGUUGGCAGAUCUGGAGUAACGUGAGCUCUGGCAAUAAUGGCAGGCAGGCAGGUCA: 0.263 ratio
CUGGUAGAGAAGGUGCUUCCUGGGCACUUCAAUACCUUUGGUGCUGAAAGGCUUUUUCGAUUGGCUUCUAACUAUAUUUCAAAAGCUGGGAUAUGUCACAAAGUUUCUACUUUUGCCAUG: 0.14 ratio
AAAUGACCUUUAACUUUUCUAAAAAUGUGAAGUUUUGUACUUACAUAUCAUCUAAAGUAUUAUAGCAUUUUUAAGUGUACUUAGUUUGAUGCCACUUUUAGUGUUUUGUUGCUUUUGUCU: 2.82 ratio
GGUAUUUUCCAGUGAAGACUAUCGCCAAGAAUGCAUAUCAUUCUGCUUAUUUUAUUCUAGUGGAUAAAAAUUCAACGUAUAUUUAAGUGUAUUUUUGACAUCUGUGCUUGUCCAACACAG: 0.314 ratio

A few entries again (set 5):
GACAAGU: 0.0913
UAUCUGU: -0.32
CAAGUUG: -0.166
UCGCGAG: -0.2
UGACCAG: -0.0337
UGAUUUG: -0.24
ACUCUGG: -0.0917
CACGGUG: -0.021
CGUUAGA: -0.171
AAGGGUG: 0.419
AAGAGGU: 0.579
GAACGCA: 0.12
